Experimental data gathered from unrelated publications.
A part holds a random share of what one study measured.

Series 1
Target: Fragile X messenger ribonucleoprotein 1, C-terminal low-complexity region (Fmr1, Mus musculus, UniProt P35922)
Technique: RNA Bind-n-Seq
Form: RNA
Medium: in vitro
Tested at: 200 nM
Notes: whole 134-nt RNA, ends assumed
Added: 150 mM KCl
Reference: input library
Reading: higher = stronger binding
All sequences stand within: GGGAGUUCUACAGUCCGACGAUC … UGGAAUUCUCGGGUGUCAAGG
Oligonucleotide	log2 enrichment
UCCUGUGCUACACAUCGUAUGUACCGAAUCGGGUUUUUUGGGGUUUUUUGGUUUUUUGGGAAAGUAUUAUGUUACGCCGUUCGGAUCUGC	0.11
UUCCGGAAGAAGAAGCUCCGAUUUGGCCGGAGCCGGAUCCACGAGUGGGGUCUGUUUGCCAUGGAACCCAUUGCUGCUGACGAGAUGGUC	-1.44
GCAGGAAGUAAAAACAAAUGGAAAUGCUUCGGAUACUGGCAGGGGUGGGGGUUGCUAAGGAAAGGGUGGGAUGGGAGUGGGUAAAGAGUU	0.302
CUGUGCUACACAUCGUAUGUACCGAAUCGGGGAAAAAAAGGGGAAAAAAAGGGAAAAAAAGGAAAGUAUUAUGUUACGCCGUUCGGAUCU	-0.308
UCCUGUGCUACACAUCGUAUGUACCGAAUCGGGCCCCCCGGCCCCCCGGCCCCCCGGGGAAAGUAUUAUGUUACGCCGUUCGGAUCUGCA	-0.0254
UUUCUCCACAGGAGCCCCGCAAGUGAGCCAGCCACUGCGAGAGCAGAGUGAGGAUAUACCUGGAGCCAUUUCCUCUGCCCUGGCAGCCAU	0.484
AAGUCCUGUGCUACACAUCGUAUGUACCGAAUCGGUUUUGGUUUUGGGGUUUUGGGAAAGUAUUAUGUUACGCCGUUCGGAUCUGCACUU	-0.568
UCCUGUGCUACACAUCGUAUGUACCGAAUCGGGGCCCCCCGGGCCCCCCGGGCCCCCCGGAAAGUAUUAUGUUACGCCGUUCGGAUCUGC	-0.239
ACCAUGCAGGUGGGCAUCUUUGGGAAGUGGGGCAAGGGGGGGAUAGGGACGGGGGUAACACUUUGGGAACAGGUGGUCCCAGGUCGUUUC	0.714
UCCCAGCCGAGGACGUCGGAUGUCAUCGUCCUUGCUGCUUUGCCACCCCAUUCCCGUCAAUAAAGUGGUUUGAACCCAACCCUGGUGUCG	-1.37
CAAGUCCUGUGCUACACAUCGUAUGUACCGAAUCGGAAAGGUUUGGUUUUUUUGGAAAGUAUUAUGUUACGCCGUUCGGAUCUGCACUUC	-0.73
UCGCCCUGGUGGCAUGCGGGGAGGAAGAGGUGGCCUCAUGGAUCGUGGUGGUCCCGGUGGAAUGUUCAGAGGUGGCCGUGGUGGAGACAG	-0.0664
CCUGUGCUACACAUCGUAUGUACCGAAUCGGGGUUUGGGGUUUUUUUGGGGUUUUUGGGGAAAGUAUUAUGUUACGCCGUUCGGAUCUGC	0.703
CUCAAGUCCUGUGCUACACAUCGUAUGUACCGAAUCGGCCGGCCGGGGCCGGGAAAGUAUUAUGUUACGCCGUUCGGAUCUGCACUUCCA	-0.0327

Series 2
Target: Histone acetyltransferase KAT6A, winged helix 1, GST fusion (KAT6A, Homo sapiens, UniProt Q92794, residues 1-85)
Technique: protein binding microarray
Form: double-stranded DNA, one strand shown
Medium: in vitro
Tested at: not given
Notes: 8-mer, flanks averaged, mean of 2 arrays, mostly near background
Reference: not given
Reading: higher = stronger binding
Residues (chain): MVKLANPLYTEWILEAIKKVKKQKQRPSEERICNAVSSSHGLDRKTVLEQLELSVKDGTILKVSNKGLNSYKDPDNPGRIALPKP
Oligonucleotide	E-score
GAGTTCCA	-0.229
GCGTCGAC	0.138
AGGCGGAT	0.161
GAACCTCC	-0.0193
ACCAACCC	-0.0689
CGAGAGAC	-0.0572
CTATCTTA	-0.149
GTTGGTGA	-0.0235
GCGCCTGA	0.104
AATCTACT	0.0462
CAAACCGG	0.171
CTGCTTCA	-0.227
ACTATACA	-0.0472
AAGAACCC	-0.0163
ACATTTTA	-0.012
GAGTGTGA	-0.292
TCATCGCA	-0.0166
AAGAATGA	-0.238

Series 3
Target: RING finger protein unkempt homolog, zinc fingers 1-6, GST-SBP tag (UNK, Homo sapiens, UniProt Q9C0B0, residues 30-357)
Technique: RNA Bind-n-Seq
Form: RNA
Medium: in vitro
Tested at: not given
Notes: RNA with constant flanks, human and mouse sites, ends assumed
Reference: input RNA pool
Reading: higher = stronger binding
All sequences stand within: GGGAGUUCUACAGUCCGACGAUC … CAACAGAGGAUUGAGCAUCA
Target sequence (chain): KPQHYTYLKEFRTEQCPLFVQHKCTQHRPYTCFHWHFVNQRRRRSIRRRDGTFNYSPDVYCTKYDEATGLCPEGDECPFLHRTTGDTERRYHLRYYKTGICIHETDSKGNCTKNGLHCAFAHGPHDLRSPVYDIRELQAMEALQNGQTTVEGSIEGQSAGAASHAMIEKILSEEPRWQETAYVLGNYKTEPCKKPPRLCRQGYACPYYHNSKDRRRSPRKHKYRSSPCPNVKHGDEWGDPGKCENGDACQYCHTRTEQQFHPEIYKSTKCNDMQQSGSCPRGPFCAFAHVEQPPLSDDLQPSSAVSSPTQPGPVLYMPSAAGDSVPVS
Oligonucleotide	bound/input enrichment
AAAUCAACGAGUACAAUUACUUUAGGAGAAAAGCUUGCUUCAGGGUCCUUAGAGAAAGUCACUGGGGCCUGCCAAGCUGCCACCUAAAGACAAGAGUGAGAGGGCUGAGUUCUUCCAGGU	0.139 ratio
CAUUUAGCAUCAUUUGGGAAAGUCAAGCAGUGUGUGAAUUUUGUGAUUGGACUUUUGAAAUUAGGUGGGCUGAUUAAUUUUUUGAUUUUCCUUCAGAGGGGAAAGUUUGCAACUUUGACA	11.2 ratio
AAGAGGCACAGUUGGUUCAAGGCAAGUGGUACCAUCAAGAAGUUCCGAGCUGGCCUCAGCAUCUUUUCACCCAUCCCCAAGUCUCCCAGUUUCCCUAUCAUACAGGACUCCAUGCUGAAA	0.258 ratio
AUCAGAGAAGCCAAAGAGAAACUGGAGGCAGAGAUGGAAGCAGCUAGACAUGAACACCAGUUAAUGCUAAUGAGGCAAGAUCUAAUGAGACGUCAAGAAGAACUCAGACGUUUGGAAGAA	0.162 ratio
AACAGUUUUCAGAAGUUCUUAAGGCAAGAGUGAAUUUCUGUGGAUUUUACUGGUCCCAGCUUUAGGUUCUUUACGACACUAACAGGACUGCAUAGAGGCUUUUUCAGCAUUACUGUAUUG	0.368 ratio
CUAGUGUCUGUGCUCAAAGGACUGCCUUCUCCUCCAGUGCCCAGUGUGUGAAUGUGCGACCCUUCUUUCACCAUUCCGUGGCUGGACGUAGCCUUCUCCCUUACUGCAUCCCCAGGGGAU	0.157 ratio
CAAAGAAAUUGAUACCUGUUAGCAUUCACUGCCACCAUAUUUUAAGGAGAAAGAACUCUAUUGGUGUCGUCUGAGCAGCCAUUUAAAAAUUGGAAUCUAAAGGAUGGUUGCUGAUGUACU	0.353 ratio
AGCAAGAAGAAUAACAUAUUCGCCCAGUUCCGGAAGAAUGACCGAGACAGACAGAAGCUGAUAGAGACAGUGGUGAGACAGCUCAGAGGCUUGGUGACUGGUAUGUCCCAGCACACGUAG	0.248 ratio
CUCAGCAAUGUGUCUUCCACGGGCAGCAUCGACAUGGUGGACUCACCACAGCUUGCCACACUAGCCGAUGAAGUGUCUGCUUCCUUGGCCAAGCAGGGUUUGUGAUCAGGCUCCCAGGGC	0.0946 ratio
AUGAUUUAUGAGAUCAUUGAUAAUUCUCAAGGAUUUUAUGUAUGCCCAGUGGAGCGCCAGAAUAGAAGCAGGAUGAACAUCCCAUUUCGCAUUGGCAACGCCAAAGGAGACGAAGCUUUG	0.261 ratio
ACGGCCUCUGAGACCAUGGUGUGCCAAUCCUCUGCAGAGCAGUCACUCACCCGACAGGACAUCACCCAGCUGGAGGAGAGCAUUCGGGCAGAUACACCUUCUGGGGAUGAGCAGGAGCCC	0.421 ratio

Series 4
Target: Sal-like protein 4, full length isoform A (SALL4, Homo sapiens, UniProt Q9UJQ4, residues 1-1053)
UniProt Q9UJQ4, sequence (whole entry, looked up): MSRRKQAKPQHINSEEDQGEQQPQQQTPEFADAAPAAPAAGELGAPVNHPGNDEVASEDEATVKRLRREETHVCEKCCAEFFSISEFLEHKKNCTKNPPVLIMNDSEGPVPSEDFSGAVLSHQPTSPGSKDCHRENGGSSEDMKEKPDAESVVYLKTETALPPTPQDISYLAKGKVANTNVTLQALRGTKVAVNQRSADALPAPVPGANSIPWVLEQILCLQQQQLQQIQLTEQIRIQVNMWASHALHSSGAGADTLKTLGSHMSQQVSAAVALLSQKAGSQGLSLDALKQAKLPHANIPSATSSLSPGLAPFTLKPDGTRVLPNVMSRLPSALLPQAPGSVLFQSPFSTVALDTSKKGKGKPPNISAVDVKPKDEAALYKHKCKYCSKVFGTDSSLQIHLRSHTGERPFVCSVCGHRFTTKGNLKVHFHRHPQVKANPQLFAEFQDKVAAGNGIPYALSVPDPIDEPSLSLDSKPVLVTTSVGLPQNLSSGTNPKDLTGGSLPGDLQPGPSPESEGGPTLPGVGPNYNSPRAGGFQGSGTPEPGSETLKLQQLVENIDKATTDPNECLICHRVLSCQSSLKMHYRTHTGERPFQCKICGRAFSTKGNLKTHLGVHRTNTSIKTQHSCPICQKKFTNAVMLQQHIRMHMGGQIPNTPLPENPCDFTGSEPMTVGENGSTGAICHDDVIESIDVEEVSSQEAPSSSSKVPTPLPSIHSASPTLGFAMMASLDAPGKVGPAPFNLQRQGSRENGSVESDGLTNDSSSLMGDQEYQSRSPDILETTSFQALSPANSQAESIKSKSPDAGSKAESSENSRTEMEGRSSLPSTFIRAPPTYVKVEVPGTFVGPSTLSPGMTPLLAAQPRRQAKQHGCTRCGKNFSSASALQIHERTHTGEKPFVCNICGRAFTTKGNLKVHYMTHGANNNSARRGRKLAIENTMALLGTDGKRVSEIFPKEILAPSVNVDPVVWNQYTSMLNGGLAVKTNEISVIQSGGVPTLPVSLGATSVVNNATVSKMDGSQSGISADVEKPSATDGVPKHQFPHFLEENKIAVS
Technique: universal PBM
Form: double-stranded DNA, one strand shown
Medium: in vitro
Tested at: 600 nM
Notes: 8-mer, flanks averaged, mean of replicates
Reading: higher = stronger binding
Oligonucleotide	E-score
GTCATAGA	0.184
ATCATTAA	0.337
CTGGTTAA	0.166
TAAGAAGA	0.234
CTCCCTGC	-0.264
CACTTGGG	-0.102
GACAATGC	0.138
AAGGGGCA	-0.224
ACAACACT	0.156
GACGTACC	-0.137
ATGCGTCA	0.0622
GACGTATA	0.144
AAAAGTAG	0.202
AGTCGACC	-0.205
ATAACAAT	0.31
CAGCACTG	-0.237
TGAGCAAA	-0.00912
AAATGAGA	0.165
GCGAATAC	0.0421
CGCAAATC	-0.00331

Series 5
Target: Centromere-binding protein 1, full length, His-tagged (CBF1, Saccharomyces cerevisiae, UniProt P17106, residues 1-351)
UniProt P17106, sequence (whole entry, looked up): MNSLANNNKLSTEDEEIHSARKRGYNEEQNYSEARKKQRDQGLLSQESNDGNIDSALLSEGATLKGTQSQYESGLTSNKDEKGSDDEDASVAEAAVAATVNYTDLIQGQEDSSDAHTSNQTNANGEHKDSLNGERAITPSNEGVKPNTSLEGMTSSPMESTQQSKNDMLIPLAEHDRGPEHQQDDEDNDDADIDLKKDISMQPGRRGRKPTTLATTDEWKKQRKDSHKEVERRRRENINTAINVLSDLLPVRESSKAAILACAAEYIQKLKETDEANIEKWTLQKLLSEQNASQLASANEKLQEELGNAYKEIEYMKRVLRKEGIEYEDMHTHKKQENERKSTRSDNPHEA
Technique: competition protein-binding microarray
Form: double-stranded DNA, one strand shown
Medium: in vitro
Tested at: 2 µM
Notes: whole 60-bp probe, lowest competitor level
Added: Pho4 competitor, 0.05 µM
Reading: higher = stronger binding
All sequences stand within: … GTCTTGATTCGCTTGACGCTGCTG
Oligonucleotide	fluorescence intensity [a.u.]
TTTTCAAGGTCGCGGCCCGTGCAAAGCGCGGCTGGA	61.3
TTTATCATTCGTTAACTTTCAACTATCTGATTTTGA	72.1
CATACCCAACCTTGGATCGTGGGTGAAGATATTTGT	76.5
CCCAAGCGCTAGCATCACAAACGGCGAACTTCCCAT	49.5
AAAGCGGTAATTTGCTCTGTGGGTGCAGATATCTAT	84.5
CACTTAAGCCTTGGCAACGTGTTGAACCAAGTCGAC	83.7
CAAAAACTAAACTGGCACGCTAGAGAAAAGTAGTCA	78.3
AAAGCGGTAATTTGGTTTGTGGGTGCAGATATCTAT	94
GGTAAATCACCTATAGACGTGCGATGCAATAACCCT	62.2
CTAGCGCCATTTCACCACATGCTTGAATAATACAGT	154
GAATGGAGTAAAGGCAGCGTGGGTACCCTGTGGAAA	66.3
AAAGATTTGCCTTTGCCCGTGCCGAAAGCAGGCTGT	67.5
AAATTACTAAGTTCACACGTGTTTTACCCCGTATGA	985
TTGCGCAGGGCGAGCCAGATGAACGCTCTAGTCGTC	46.8
CGGGGTTAAGTTTGATTCGTGGGTGGCTTGCAGCAG	68.7
TTACAAATGGTTCAGATCATGCAGATGCAGCACTTG	72.4
CGTTGCCTTATCGTCCTCGTGTCCTGTCTTCGAGGT	109
TTGCCGTGTGAAGGCAACGTGATGGCCGCTACACTA	211
AGTACTTGACTGCACCTCGTGTCGGAAGATTTTCCA	93.6
CCGCTAACAAATCCACACGTCGCACTGAAAGTGATA	70.1
AATGGGTATGGCAGCACCGTGATGGAACAACCATTT	75.8
CCTCGGCGCTCCAACCACGTGCTGTTTATTACTCTG	1860
TGCGCAACAACTTGGTACGTGGGTGTATGTCTAGAA	61.1
CGGAGCTGCAAGTACTACGTGCCAGCAGCATAATAA	72.5

For quick reference, copied from above (series 4):
Oligonucleotide	E-score
GACGTATA	0.144
AAAAGTAG	0.202
AGTCGACC	-0.205
ATAACAAT	0.31
CAGCACTG	-0.237
TGAGCAAA	-0.00912
AAATGAGA	0.165
GCGAATAC	0.0421
